Results from different studies.
Numbered parts are unrelated; each lists some results of a single study.

Series 1
Target: Histone acetyltransferase KAT6A, winged helix 2, GST fusion (KAT6A, Homo sapiens, UniProt Q92794, residues 85-181)
Method: protein binding microarray
Form: double-stranded DNA, one strand shown
Matrix: in vitro
Concentration: not given
Notes: 8-mer, flanks averaged, mean of 2 arrays, mostly near background
Relative to: not given
Reading: higher = stronger binding
Residues (chain): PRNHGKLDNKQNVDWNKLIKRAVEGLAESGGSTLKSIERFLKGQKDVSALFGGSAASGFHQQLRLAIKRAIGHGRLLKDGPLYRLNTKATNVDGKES
| Strand | E-score |
| --- | --- |
| CAAGACTA | -0.237 |
| GCCGGTAA | 0.0548 |
| CTATATAC | -0.0261 |
| ACTATGCC | 0.029 |
| ACGACTAG | -0.0664 |
| AGGCACTA | 0.138 |
| GCCTATAC | -0.129 |

Series 2
Target: Prothrombin, mature alpha-thrombin (F2, Homo sapiens, UniProt P00734)
Method: aptamer microarray, sandwich
Form: DNA with 2'F-ANA
Matrix: in vitro
Concentration: 200 nM
Notes: whole 15-mer aptamer, many near background
Together with: Cy3 exosite-II aptamer, 400 nM
Reading: higher = stronger binding
Strand: GGTTGGTGTGGTTGG
| Modification | mean fluorescence intensity |
| --- | --- |
| 2'F-ANA at 4 6 7 8 9 11 12 13 15 | 277 a.u. |
| 2'F-ANA at 3 5 8 9 12 13 14 15 | 106 a.u. |
| 2'F-ANA at 5 6 7 8 9 10 13 14 | 48.5 a.u. |
| 2'F-ANA at 1 3 4 5 7 8 11 12 14 15 | 50.5 a.u. |
| 2'F-ANA at 5 11 15 | 60.1 a.u. |
| 2'F-ANA at 2 3 4 5 7 8 9 11 13 | 65.7 a.u. |
| 2'F-ANA at 2 4 5 10 11 12 13 15 | 49.9 a.u. |
| 2'F-ANA at 2 6 7 9 13 15 | 235 a.u. |

Series 3
Target: Sal-like protein 4, full length isoform B (SALL4, Homo sapiens, UniProt Q9UJQ4-2, residues 1-616)
Method: universal PBM
Form: double-stranded DNA, one strand shown
Matrix: in vitro
Concentration: not given
Notes: 8-mer, flanks averaged, mean of replicates
Reading: higher = stronger binding
| Strand | E-score |
| --- | --- |
| CAGTAACG | 0.0272 |
| GCTCGACA | -0.123 |
| GCATATGA | 0.196 |
| CATAGTGA | 0.239 |
| CATCCGAG | -0.193 |
| ATACAGAA | 0.136 |
| ACCAAGGT | -0.146 |

Further values, each from its own experiment
| Substance | target | assay | system | setting | how to read | endpoint | value |
| --- | --- | --- | --- | --- | --- | --- | --- |
| PhoQ, residues 284 288 289 292 302 303 TAVSDG | PhoP, residues 12 14 15 18 19 SMASL (Escherichia coli, UniProt P23836) | Sort-seq, refers to: YFP reporter | E. coli | PhoQ-PhoP variant library, together with: 10 µM Mg2+ | relative to: high Mg2+ state, higher = stronger signaling | fold induction | 7.35 |

A few entries again (series 1):
| Strand | E-score |
| --- | --- |
| GCCTATAC | -0.129 |
| CAAGACTA | -0.237 |
| ACGACTAG | -0.0664 |
